Experimental data of several laboratories.
Compare with care: the assays were run in different laboratories. ± gives the spread as reported.
Oprd1: Delta-type opioid receptor (Oprd1, Rattus norvegicus, UniProt P33533)
Chain of UniProt P33533 (whole entry, looked up): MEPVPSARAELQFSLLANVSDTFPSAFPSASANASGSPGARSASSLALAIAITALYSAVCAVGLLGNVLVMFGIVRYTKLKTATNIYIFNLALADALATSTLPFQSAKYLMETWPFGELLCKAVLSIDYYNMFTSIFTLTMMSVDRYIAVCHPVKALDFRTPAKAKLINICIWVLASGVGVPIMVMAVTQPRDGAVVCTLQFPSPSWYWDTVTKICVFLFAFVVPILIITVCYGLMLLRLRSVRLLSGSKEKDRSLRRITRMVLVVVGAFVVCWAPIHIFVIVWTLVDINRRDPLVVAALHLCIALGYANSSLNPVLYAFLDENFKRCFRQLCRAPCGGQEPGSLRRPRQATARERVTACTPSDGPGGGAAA
Chain of UniProt P35462 (whole entry, looked up): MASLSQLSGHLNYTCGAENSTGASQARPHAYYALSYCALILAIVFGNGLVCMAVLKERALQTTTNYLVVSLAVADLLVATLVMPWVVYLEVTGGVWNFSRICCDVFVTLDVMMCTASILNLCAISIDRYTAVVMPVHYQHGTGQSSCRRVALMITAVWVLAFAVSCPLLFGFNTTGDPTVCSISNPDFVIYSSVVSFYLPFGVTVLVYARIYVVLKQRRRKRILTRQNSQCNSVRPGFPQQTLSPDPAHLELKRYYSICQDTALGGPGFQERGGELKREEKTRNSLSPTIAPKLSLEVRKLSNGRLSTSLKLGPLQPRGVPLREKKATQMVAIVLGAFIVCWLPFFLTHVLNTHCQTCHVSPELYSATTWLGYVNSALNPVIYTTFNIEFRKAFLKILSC
Chain of UniProt P21554 (whole entry, looked up): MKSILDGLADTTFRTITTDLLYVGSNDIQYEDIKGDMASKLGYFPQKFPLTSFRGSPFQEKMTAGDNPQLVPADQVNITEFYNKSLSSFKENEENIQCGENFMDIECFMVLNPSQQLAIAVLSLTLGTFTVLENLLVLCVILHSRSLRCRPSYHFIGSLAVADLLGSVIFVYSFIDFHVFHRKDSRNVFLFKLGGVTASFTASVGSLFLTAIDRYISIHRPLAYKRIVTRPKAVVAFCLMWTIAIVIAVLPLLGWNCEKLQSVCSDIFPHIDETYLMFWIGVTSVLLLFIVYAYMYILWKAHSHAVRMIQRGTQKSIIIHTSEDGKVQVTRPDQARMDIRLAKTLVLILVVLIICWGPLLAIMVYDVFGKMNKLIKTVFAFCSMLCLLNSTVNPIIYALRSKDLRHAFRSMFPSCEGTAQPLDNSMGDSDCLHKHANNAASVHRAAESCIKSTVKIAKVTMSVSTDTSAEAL
Chain of UniProt Q9NSD7 (whole entry, looked up): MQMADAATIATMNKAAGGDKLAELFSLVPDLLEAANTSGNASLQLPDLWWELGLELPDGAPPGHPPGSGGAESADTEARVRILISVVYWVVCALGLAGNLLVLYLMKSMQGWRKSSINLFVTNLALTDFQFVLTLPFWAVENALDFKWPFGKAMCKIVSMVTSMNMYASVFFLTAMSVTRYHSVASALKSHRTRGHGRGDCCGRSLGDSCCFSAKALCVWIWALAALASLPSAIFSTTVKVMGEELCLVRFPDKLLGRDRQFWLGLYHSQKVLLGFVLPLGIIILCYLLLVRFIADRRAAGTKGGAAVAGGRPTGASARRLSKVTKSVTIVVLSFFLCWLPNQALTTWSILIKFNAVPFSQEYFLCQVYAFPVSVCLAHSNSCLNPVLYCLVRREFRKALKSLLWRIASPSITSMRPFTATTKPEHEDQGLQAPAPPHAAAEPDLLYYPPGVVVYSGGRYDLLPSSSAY
Chain of UniProt P56450 (whole entry, looked up): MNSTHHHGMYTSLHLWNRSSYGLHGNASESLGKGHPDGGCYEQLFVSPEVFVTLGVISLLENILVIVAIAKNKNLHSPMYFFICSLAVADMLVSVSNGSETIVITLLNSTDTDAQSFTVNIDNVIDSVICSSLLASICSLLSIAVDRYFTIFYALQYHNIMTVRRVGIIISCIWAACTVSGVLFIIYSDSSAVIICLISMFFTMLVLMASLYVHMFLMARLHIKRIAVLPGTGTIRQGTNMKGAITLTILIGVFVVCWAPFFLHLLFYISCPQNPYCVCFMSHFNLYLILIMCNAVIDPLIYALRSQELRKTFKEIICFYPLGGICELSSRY
Chain of UniProt P50391 (whole entry, looked up): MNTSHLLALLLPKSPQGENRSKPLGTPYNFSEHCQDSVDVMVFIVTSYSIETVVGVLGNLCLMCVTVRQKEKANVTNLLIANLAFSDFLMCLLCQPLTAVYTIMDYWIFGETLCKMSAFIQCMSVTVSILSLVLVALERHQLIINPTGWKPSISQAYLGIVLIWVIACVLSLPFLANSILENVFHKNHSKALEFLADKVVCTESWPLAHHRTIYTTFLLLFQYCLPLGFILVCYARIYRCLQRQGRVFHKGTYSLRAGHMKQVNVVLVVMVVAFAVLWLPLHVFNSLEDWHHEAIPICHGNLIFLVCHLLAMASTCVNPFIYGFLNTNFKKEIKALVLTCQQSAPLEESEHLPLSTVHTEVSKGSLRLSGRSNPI

SMILES	target	assay	system	conditions	EC50
CC[C@H](C)[C@@H]1NC(=O)[C@@H](NC(=O)[C@H](CCC(=O)O)NC(=O)[C@H](CCCNC(=N)N)NC(=O)CNC(=O)[C@H](CO)NC(=O)[C@H](CC(C)C)NC(=O)[C@H](CCCNC(=N)N)NC(=O)[C@@H](NC(=O)CNC(=O)[C@H](Cc2ccc(O)cc2)NC(=O)[C@@H]2CCCN2C(=O)[C@H](C)NC(=O)[C@H](C)NC(=O)[C@@H](N)CCCNC(=N)N)C(C)C)CCCCNC(=O)C[C@@H](C(=O)N[C@H](C(=O)N[C@@H](Cc2ccccc2)C(=O)N[C@H](C(=O)N[C@@H](CO)C(=O)NCC(=O)NCC(=O)N[C@@H](CO)C(=O)N[C@@H](CCCNC(=N)N)C(=O)N[C@@H](Cc2c[nH]c3ccccc23)C(=O)O)[C@@H](C)O)[C@@H](C)CC)NC(=O)[C@H](C)NC(=O)[C@H](CCCNC(=N)N)NC1=O	Relaxin-3 receptor 1 (RXFP3, Homo sapiens, UniProt Q9NSD7)	cAMP, agonist	–	–	1070 nM
CC(C)C[C@@H]1NC(=O)[C@H](Cc2ccc(O)cc2)NC(=O)[C@H](CO)NC(=O)[C@H](C)NC(=O)[C@@H](NC(=O)[C@@H](NC(=O)[C@H](CO)NC(=O)[C@@H](N)CC(=O)O)C(C)C)CSC1=O	Accessory gene regulator protein C (Staphylococcus epidermidis, UniProt O86861)	–	–	–	1870 nM
CCCN1CCO[C@@H]2c3cc(O)ccc3OC[C@H]21	D(3) dopamine receptor (DRD3, Homo sapiens, UniProt P35462)	cell growth or viability, thymidine uptake	–	–	0.78 nM
CC(C)C[C@@H]1NC(=O)[C@H](Cc2ccc(O)cc2)NC(=O)[C@H](CO)NC(=O)[C@H](C)NC(=O)[C@@H](NC(=O)[C@@H]2CCCN2C(=O)[C@H](CC(N)=O)NC(=O)[C@H](Cc2ccc(O)cc2)NC(=O)[C@@H](N)CCCCN)CSC1=O	Accessory gene regulator protein C (Staphylococcus epidermidis, UniProt Q8VSX2)	–	–	–	28.9 nM
CC(C)C[C@H](NC(=O)[C@H](Cc1ccc2ccccc2c1)NC(=O)CNC(=O)[C@H](NC(=O)[C@@H](N)Cc1ccc(O)cc1)[C@H](C)O)C(=O)N[C@@H](CO)C(N)=O	Oprd1	GTPγS binding, agonist, radiometric	–	cell membranes	11.3 nM
CC[C@H](C)[C@H](NC(=O)[C@H](Cc1ccccc1)NC(=O)[C@H](Cc1c[nH]cn1)NC(=O)[C@@H](NC(=O)[C@H](CCC(N)=O)NC(=O)[C@H](CCCNC(=N)N)NC(=O)[C@@H](NC(=O)[C@@H](N)CCC(=O)O)[C@@H](C)CC)[C@@H](C)O)C(=O)N[C@@H](Cc1ccccc1)C(=O)N[C@@H](Cc1ccccc1)C(=O)N[C@@H](Cc1ccccc1)C(=O)N[C@@H](Cc1ccccc1)C(=O)N[C@@H](Cc1ccccc1)C(=O)N[C@@H](CCCCN)C(=O)N[C@@H](CCCNC(=N)N)C(=O)N[C@@H](CCCNC(=N)N)C(=O)O	histidine kinase ComD (Streptococcus pneumoniae serotype 4, UniProt A0A0H2US84)	reporter gene, agonist	Streptococcus pneumoniae, TIGR4 comX::lacZ	30 min, pH 7.3, 37 °C	> 10000 nM
CC(=O)N[C@@H](CCCNC(=N)N)C(=O)N[C@H](Cc1ccc(O)cc1)C(=O)N[C@@H](CCCNC(=N)NC(=O)NCCCCN)C(=O)N[C@@H](CC(C)C)C(=O)N[C@@H](CCCNC(=N)N)C(=O)N[C@@H](Cc1ccc(O)cc1)C(N)=O	Neuropeptide Y receptor type 4 (NPY4R, Homo sapiens, UniProt P50391)	β-arrestin 1 recruitment, agonist	HEK293T	–	2050 ± 780 nM
CCCCCn1c2ccccc2c2cc(C(=O)c3ccncc3)ccc21	Cannabinoid receptor 1 (CNR1, Homo sapiens, UniProt P21554)	GTPγS binding, agonist, radiometric	–	cell membranes	1660 nM
C#CCC[C@H](NC(=O)[C@H](Cc1c[nH]c2ccccc12)NC(=O)[C@H](CCCNC(=N)N)NC(=O)[C@@H](Cc1ccccc1)NC(=O)[C@H](Cc1c[nH]cn1)NC(=O)[C@H](CCN=[N+]=[N-])NC(=O)[C@H](CCCC)NC(C)=O)C(N)=O	Melanocortin receptor 4 (Mus musculus, UniProt P56450)	reporter gene, agonist	–	–	~0.05 nM
Cc1cc(O)cc(C)c1CC(N)C(=O)NC1CCNc2c(C)cc(Cc3ccccc3)cc21 (stereo not shown)	Oprd1	GTPγS binding, agonist, radiometric	–	cell membranes	110 nM

For quick reference, copied from above:
SMILES	target	assay	system	conditions	EC50
CCCN1CCO[C@@H]2c3cc(O)ccc3OC[C@H]21	D(3) dopamine receptor (DRD3, Homo sapiens, UniProt P35462)	cell growth or viability, thymidine uptake	–	–	0.78 nM
CC(C)C[C@@H]1NC(=O)[C@H](Cc2ccc(O)cc2)NC(=O)[C@H](CO)NC(=O)[C@H](C)NC(=O)[C@@H](NC(=O)[C@@H]2CCCN2C(=O)[C@H](CC(N)=O)NC(=O)[C@H](Cc2ccc(O)cc2)NC(=O)[C@@H](N)CCCCN)CSC1=O	Accessory gene regulator protein C (Staphylococcus epidermidis, UniProt Q8VSX2)	–	–	–	28.9 nM
